Results pooled from the literature.
Lines come from different studies, so protocols differ. Values joined by “and” are separate records of one study, mostly repeats; a detail may differ. ± gives the spread as reported. Converted amounts (≈) assume the structure as drawn.
Sequence of UniProt P41586 (whole entry, unmodified, looked up): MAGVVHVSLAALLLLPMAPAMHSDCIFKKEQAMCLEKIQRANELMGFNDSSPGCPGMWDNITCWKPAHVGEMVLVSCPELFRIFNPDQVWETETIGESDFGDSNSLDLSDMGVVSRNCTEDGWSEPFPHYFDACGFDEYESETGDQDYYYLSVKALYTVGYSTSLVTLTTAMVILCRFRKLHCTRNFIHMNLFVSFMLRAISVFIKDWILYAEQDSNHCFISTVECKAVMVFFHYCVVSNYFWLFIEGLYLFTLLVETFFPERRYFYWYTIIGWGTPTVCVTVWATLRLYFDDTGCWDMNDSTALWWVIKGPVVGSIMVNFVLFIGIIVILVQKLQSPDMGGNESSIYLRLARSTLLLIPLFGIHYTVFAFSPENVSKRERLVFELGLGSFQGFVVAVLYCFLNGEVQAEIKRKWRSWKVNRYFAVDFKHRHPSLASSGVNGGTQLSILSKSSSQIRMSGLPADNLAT
Sequence of UniProt Q12851 (whole entry, looked up): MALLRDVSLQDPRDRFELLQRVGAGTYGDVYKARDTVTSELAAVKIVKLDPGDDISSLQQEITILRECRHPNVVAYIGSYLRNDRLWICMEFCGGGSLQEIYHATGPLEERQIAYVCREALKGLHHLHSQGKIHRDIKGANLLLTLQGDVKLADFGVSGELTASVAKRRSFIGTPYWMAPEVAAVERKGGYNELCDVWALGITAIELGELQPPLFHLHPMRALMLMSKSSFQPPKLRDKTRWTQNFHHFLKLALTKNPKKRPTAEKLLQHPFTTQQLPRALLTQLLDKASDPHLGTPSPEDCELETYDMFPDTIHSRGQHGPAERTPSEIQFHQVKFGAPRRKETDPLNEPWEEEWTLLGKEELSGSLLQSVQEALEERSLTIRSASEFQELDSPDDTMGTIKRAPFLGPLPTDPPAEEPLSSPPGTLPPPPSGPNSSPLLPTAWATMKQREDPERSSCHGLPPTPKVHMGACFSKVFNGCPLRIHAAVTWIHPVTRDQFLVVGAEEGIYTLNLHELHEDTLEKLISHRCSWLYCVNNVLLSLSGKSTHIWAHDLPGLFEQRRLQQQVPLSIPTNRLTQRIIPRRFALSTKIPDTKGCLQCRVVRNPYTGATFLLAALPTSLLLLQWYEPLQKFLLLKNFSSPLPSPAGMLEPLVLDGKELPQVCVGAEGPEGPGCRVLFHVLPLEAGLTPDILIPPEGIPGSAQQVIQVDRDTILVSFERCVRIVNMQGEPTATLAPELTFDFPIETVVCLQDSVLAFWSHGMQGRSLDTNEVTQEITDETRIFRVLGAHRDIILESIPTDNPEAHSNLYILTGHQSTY
Sequence of UniProt P51955 (whole entry, looked up): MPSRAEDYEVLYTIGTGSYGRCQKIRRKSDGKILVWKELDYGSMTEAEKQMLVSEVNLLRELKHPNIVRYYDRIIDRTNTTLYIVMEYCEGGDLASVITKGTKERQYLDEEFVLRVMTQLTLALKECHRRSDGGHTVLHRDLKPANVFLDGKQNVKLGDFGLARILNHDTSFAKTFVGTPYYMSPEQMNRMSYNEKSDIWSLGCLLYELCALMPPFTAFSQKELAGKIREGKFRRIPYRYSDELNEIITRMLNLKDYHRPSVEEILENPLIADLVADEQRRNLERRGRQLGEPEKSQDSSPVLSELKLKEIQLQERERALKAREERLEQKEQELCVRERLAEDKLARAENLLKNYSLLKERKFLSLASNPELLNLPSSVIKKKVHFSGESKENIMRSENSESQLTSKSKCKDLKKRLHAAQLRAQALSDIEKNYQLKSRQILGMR
Sequence of UniProt Q13188 (whole entry, looked up): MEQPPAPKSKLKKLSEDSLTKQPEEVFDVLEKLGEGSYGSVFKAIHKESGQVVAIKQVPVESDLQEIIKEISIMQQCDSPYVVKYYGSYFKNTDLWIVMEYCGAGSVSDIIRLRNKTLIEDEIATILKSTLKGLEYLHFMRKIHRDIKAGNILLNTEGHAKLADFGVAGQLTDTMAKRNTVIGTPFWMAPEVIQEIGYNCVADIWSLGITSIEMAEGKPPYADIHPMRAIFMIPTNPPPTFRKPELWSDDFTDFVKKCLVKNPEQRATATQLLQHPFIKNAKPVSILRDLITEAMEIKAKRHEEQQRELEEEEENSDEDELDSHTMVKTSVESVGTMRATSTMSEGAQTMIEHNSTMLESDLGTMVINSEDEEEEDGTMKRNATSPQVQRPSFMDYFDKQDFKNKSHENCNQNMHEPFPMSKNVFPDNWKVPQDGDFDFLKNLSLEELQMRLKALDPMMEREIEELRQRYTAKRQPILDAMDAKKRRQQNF
Sequence of UniProt P32300 (whole entry, looked up): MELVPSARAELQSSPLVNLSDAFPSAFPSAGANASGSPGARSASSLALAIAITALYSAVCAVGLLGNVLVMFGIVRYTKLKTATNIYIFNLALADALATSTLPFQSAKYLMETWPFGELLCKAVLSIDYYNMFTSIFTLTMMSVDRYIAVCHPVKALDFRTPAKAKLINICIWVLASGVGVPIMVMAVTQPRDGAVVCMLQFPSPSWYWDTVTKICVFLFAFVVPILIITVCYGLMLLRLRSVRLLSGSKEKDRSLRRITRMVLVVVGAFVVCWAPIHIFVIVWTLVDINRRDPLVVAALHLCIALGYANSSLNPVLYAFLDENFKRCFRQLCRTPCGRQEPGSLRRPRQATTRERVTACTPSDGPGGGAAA
Sequence of UniProt Q01718 (whole entry, looked up): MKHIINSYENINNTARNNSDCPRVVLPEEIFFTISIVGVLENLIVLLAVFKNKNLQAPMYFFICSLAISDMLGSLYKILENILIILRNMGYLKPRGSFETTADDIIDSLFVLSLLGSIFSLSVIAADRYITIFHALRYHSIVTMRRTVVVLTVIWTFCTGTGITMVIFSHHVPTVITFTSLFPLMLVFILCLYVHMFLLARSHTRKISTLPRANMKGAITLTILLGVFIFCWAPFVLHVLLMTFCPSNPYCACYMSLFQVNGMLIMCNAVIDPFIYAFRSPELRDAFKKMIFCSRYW

CC[C@H](C)CCCCC(=O)N[C@@H](CCN)C(=O)N[C@H](C(=O)N[C@@H](CCN)C(=O)N[C@H]1CCNC(=O)[C@H]([C@@H](C)O)NC(=O)[C@H](CCN)NC(=O)[C@H](CCN)NC(=O)[C@H](CC(C)C)NC(=O)[C@@H](CC(C)C)NC(=O)[C@H](CCN)NC1=O)[C@@H](C)O  MIC fold change (Escherichia coli; daily serial passaging; ATCC 8739; highest sub-MIC, 49 days; relative to: initial MIC): 1.89
O=C1NC(=O)c2c1c1cc(F)c[n+]3c1c1c2c2cc(O)ccc2[n]1[Ru-4]312([N]=C=S)[S+]3CC[S+]1CC[S+]2CC3 (stereo not drawn)  remaining activity (STK3 (Homo sapiens, UniProt Q13188); enzyme activity; 100 nM, human enzyme, together with: 10 µM ATP; relative to: untreated): 6%
CC(C)SC(SC(C)C)c1ccc(OCCNS(=O)(=O)c2ccc(Br)cc2)c(Cl)c1  EC50 (Tobacco mosaic virus; protective activity; plant in vivo): 672.3 ± 3.2 µg/mL (≈ 1220 µM)
O=C(O)c1ccc(-c2nc(-c3ccccc3Cl)c3sccn23)cc1  bone marrow cellularity (histology; mouse; dose not given, day 10, together with: 5-fluorouracil): 95% and 90%
Cl.Oc1ccc(Nc2ccnc3cc(Cl)ccc23)cc1  inhibition (Dengue virus type 2; viral replication, Rluc reporter replicon; BHK-21 DENV2 replicon cells; 50 µM, 24 h): 3.9 ± 0.3%
CC(C)CC(O)(CC(C)C)c1cn(C(=O)N2CCCC2)nn1  SILAC ratio per peptide (mouse T cells; N-terminal labelling proteomics, item: Samsn1 N-terminal peptide; 0.001 µM, 6 h; relative to: DMSO): 0.56
CSCC[C@H](NC(=O)[C@H](CCC(N)=O)NC(=O)[C@H](CCCCN)NC(=O)[C@H](CCCNC(=N)N)NC(=O)[C@H](Cc1ccc(O)cc1)NC(=O)[C@H](CCCNC(=N)N)NC(=O)[C@H](CO)NC(=O)[C@H](Cc1ccc(O)cc1)NC(=O)[C@H](CO)NC(=O)[C@H](CC(=O)O)NC(=O)[C@@H](NC(=O)[C@@H](N)Cc1ccccc1)[C@@H](C)O)C(=O)N[C@@H](C)C(=O)N[C@H](C(=O)N[C@@H](CCCCN)C(=O)N[C@@H](CCCCN)C(=O)N[C@@H](Cc1ccc(O)cc1)C(=O)N[C@@H](CC(C)C)C(=O)N[C@@H](C)C(=O)N[C@@H](C)C(=O)N[C@H](C(=O)N[C@@H](CC(C)C)C(=O)NCC(=O)N[C@@H](CCCCN)C(=O)N[C@@H](CCCNC(=N)N)C(=O)N[C@@H](Cc1ccc(O)cc1)C(=O)N[C@@H](CCCCN)C(=O)N[C@@H](CCC(N)=O)C(=O)N[C@@H](CCCCn1cc(C[C@H](NC(=O)CNC(=O)[C@H](CO)NC(=O)[C@H](CCCNC(=N)N)NC(=O)[C@H](CO)NC(=O)[C@H](CC(C)C)NC(=O)[C@H](CC(C)C)NC(=O)CNC(=O)[C@H](C)NC(=O)[C@H](CC(C)C)NC(=O)[C@H](CCCNC(=N)N)NC(=O)[C@H](Cc2c[nH]cn2)NC(=O)[C@@H](NC(=O)[C@@H](N)C(C)C)[C@@H](C)O)C(=O)N[C@H](C(=O)N[C@H](C(=O)N[C@@H](CCCCN)C(=O)N[C@@H](CC(N)=O)C(=O)N[C@@H](CC(N)=O)C(=O)N[C@@H](Cc2ccccc2)C(=O)N[C@H](C(=O)N2CCC[C@H]2C(=O)N[C@H](C(=O)N[C@@H](CC(N)=O)C(=O)N[C@H](C(=O)NCC(=O)N[C@@H](CO)C(=O)N[C@@H](CCCCN)C(=O)N[C@@H](C)C(=O)N[C@@H](Cc2ccccc2)C(N)=O)C(C)C)[C@@H](C)O)C(C)C)C(C)C)C(C)C)nn1)C(=O)N[C@H](C(=O)N[C@@H](CCCCN)C(=O)N[C@@H](CC(N)=O)C(=O)N[C@@H](CCCCN)C(N)=O)C(C)C)C(C)C)C(C)C  Kb (ADCYAP1R1 (Homo sapiens, UniProt P41586, del89-109); cAMP accumulation, antagonist; together with: VIP): 0.0102 µM
COc1cc(C(SC(C)C)SC(C)C)ccc1OCCNS(=O)(=O)c1ccc(Br)cc1  EC50 (tobacco mosaic virus; protective activity; in vivo plant): 252 ± 2.6 µg/mL (≈ 460 µM)
CC[C@H](C)[C@H](NC(=O)[C@H](CO)NC(=O)[C@H](Cc1ccc(O)cc1)NC(=O)[C@H](Cc1ccc(O)cc1)NC(=O)[C@H](CC(N)=O)NC(=O)CNC(=O)[C@H](CO)NC(=O)[C@H](Cc1ccc(O)cc1)NC(=O)[C@H](CO)NC(=O)[C@H](CO)NC(=O)[C@H](CC(N)=O)NC(=O)COCCOCCNC(=O)CN1CCN(CC(=O)O)CCN(CC(=O)O)CCN(CC(=O)O)CC1)C(=O)N[C@@H](CC(C)C)C(N)=O [copper-64 labelled]  tissue uptake (dynamic PET; KPC mouse Ptf1a-CreER tdTomato, metastases; intravenous, 4.6 MBq/mouse, 0.4 min, 84 d after tamoxifen): 8.81 %ID/mL
CC(C)CC(C(=O)N1CC2(CC1C#N)C(=O)Nc1ccccc12)N(C)C(=O)c1cc2c(F)cc(F)c(F)c2[nH]1 (stereo not drawn)  inhibition (human coronavirus 229E; viral replication; 0.0333 µM): 100%
NCCCO.O=C(O)C(Cl)Cl  herbicidal inhibition (Eclipta prostrata; 15 mg/mL, 21 days, pre-emergence, greenhouse): 0%
CC(C)[C@H](NC(=O)[C@H](CCCNC(=N)N)NC(=O)[C@@H]1CCCN1C(=O)[C@@H](NC(=O)[C@H](C)NC(=O)[C@H](Cc1ccc(O)cc1)NC(=O)[C@H](CCC(N)=O)NC(=O)[C@H](CCCCN)NC(=O)[C@H](CCCNC(=N)N)NC(=O)[C@@H]1CCCN1C(=O)[C@H](CCC(=O)O)NC(=O)[C@@H](NC(=O)[C@H](C)N)[C@@H](C)O)[C@@H](C)O)C(=O)N[C@@H](Cc1ccccc1)C(=O)N[C@@H](Cc1c[nH]c2ccccc12)C(=O)N[C@H](C(=O)N[C@@H](CC(=O)O)C(=O)N[C@@H](C)C(=O)N1CCC[C@H]1C(=O)NCC(=O)NCCOCCOCCOCCOCCOCCOCCOCCOCCOCCOCCOCCOCCC(=O)N[C@@H](CS)C(N)=O)[C@@H](C)O  selectivity ratio (H2122 lung adenocarcinoma; cell binding, phage binding, item: output/input phage; 10 min, 37 °C; relative to: control phage): 0.56 ± 0.14
CCCCSC(SCCCC)c1ccc(OCCNS(=O)(=O)c2ccc(F)cc2)c(OC)c1  EC50 (Tobacco mosaic virus; curative activity; plant in vivo): 329.5 ± 1.5 µg/mL (≈ 639 µM)
N=C(N)NCCC[C@@H]1NC(=O)[C@H](CCCCNC(=O)CCC(NC(=S)Nc2ccc(CC3CN(CC(=O)O)CCN(CC(=O)O)CCN(CC(=O)O)CCN3CC(=O)O)cc2)C(=O)NCCCC[C@@H]2NC(=O)[C@@H](Cc3ccc(O)cc3)NC(=O)[C@H](CC(=O)O)NC(=O)CNC(=O)[C@H](CCCNC(=N)N)NC2=O)NC(=O)[C@@H](Cc2ccc(O)cc2)NC(=O)[C@H](CC(=O)O)NC(=O)CNC1=O (stereo partly drawn) [scandium-44 labelled]  tissue uptake (ex vivo γ-counting; female athymic nude mice, U-87 MG xenograft, stomach; intravenous, 4 h, together with: cRGD 50 mg/kg blocking): 0.042 ± 0.01 %ID/g
Cc1cc(C(=O)Nc2nc3cccc(C)c3n2[C@H]2CCCCN(C(=O)/C=C/CN(C)C)C2)ccn1  EC50 fold shift (Trypanosoma brucei; cell growth, Alamar Blue; 2T1 overexpressing Tb927.11.12310; relative to: parental 2T1): 0.8 fold and 0.62 fold
CC(C)(C)C(=O)OCOP(=O)(OCOC(=O)C(C)(C)C)C1CCCN(O)C1=O (stereo not drawn)  TGI (HOP-92): 51.5 µM
Cc1cc(Oc2nc(N3CC[C@@H](c4ccncc4)C3)ncc2F)[nH]n1  IC50 (MV4-11; cell proliferation; blood cancer): 4.68 µM
CC(C)[C@H]1NC(=O)C[C@H]2/C=C/CCSSC[C@@H](NC1=O)C(=O)N[C@H](Cc1cccc3ccccc13)C(=O)NCC(=O)O2  inhibition (NEK2 (Homo sapiens, UniProt P51955); enzyme activity, inhibitor; 10 µM): 2.5%
CN1C(=O)C(C2C3=C(CC(C)(C)CC3=O)Oc3ccc(Cl)cc32)C(=O)N(C)C1=O (stereo not drawn)  lipid content (3T3-L1 preadipocytes; adipogenesis, Oil Red O staining; IC20, 14 days, single replicate): 0.692 OD492 and 0.693 OD492 and 0.664 OD492
O=C1NC2(CC2)COc2ncc(F)cc2[C@H]2COCCN2c2ccn3ncc1c3n2  prothrombin time (Sprague-Dawley rat, male, plasma; oral, 10 mg/kg/day, end of treatment, 4-week repeated-dose toxicity): 8.9 ± 0.6 s
COc1ccccc1-c1n[nH]c2nc(NC3CCN(C(=O)Cc4ccc(F)cc4F)CC3)ncc12  relative abundance (bead binding, competition bead pull-down, item: LMJF.07.0340; Leishmania donovani extract; 10 µM; relative to: vehicle): 0.96
CCCSC(SCCC)c1ccc(OCCNS(=O)(=O)c2ccc(Br)cc2)c(OC)c1  EC50 (Tobacco mosaic virus; protective activity; plant in vivo): 340 ± 4.3 µg/mL (≈ 619 µM)
COc1ccccc1-c1n[nH]c2nc(N[C@H]3CC[C@H](NS(=O)(=O)CC(C)C)CC3)ncc12  relative abundance (bead binding, competition bead pull-down, item: LINJ.23.0220; Leishmania donovani extract; 10 µM; relative to: vehicle): 0.94
CN(C)[C@H]1C[C@@]23CC[C@@]4(O2)C(=CC[C@]2(C)[C@@H](c5ccc6ccncc6c5)CC[C@H]24)C=C3[C@@H](O)[C@@H]1O  inhibition (MAP4K2 (Homo sapiens, UniProt Q12851); ATP probe labelling, inhibitor, KiNativ profiling; 0.1 µM): 8.4%
N[C@H](C(=O)N1CCCC1)C1CCN(c2nccc3c(-c4ncc(Cl)cc4Cl)cccc23)CC1  response (MC2R (Homo sapiens, UniProt Q01718); functional response, agonist; 10 µM): 3%
CS(C)(=O)=Nc1ccc(-c2ccc(-c3nc4cc(O[C@@H]5CO[C@H]6[C@@H]5OC[C@H]6O)[nH]c4cc3F)cc2)cc1  inhibition (Oprd1 (Mus musculus, UniProt P32300); calcium signal, antagonist; 10 µM): 21%
CC(C)[C@@H]1NC(=O)[C@@H]2CCCN2C(=O)[C@@H](C(C)C)NC(=O)[C@H]2CCCN2C(=O)[C@H](C(C)C)NC(=O)[C@@H]2CCCN2C(=O)[C@@H](C(C)C)NC(=O)[C@H]2CCCN2C(=O)[C@H](C(C)C)NC(=O)[C@@H]2CCCN2C(=O)[C@@H](C(C)C)NC(=O)[C@H]2CCCN2C1=O  transference number (sheep lipid bilayer; 10 µM, pH 7.4, 23 °C, together with: Tl cation): 0.94

Excerpt of the above:
COc1ccccc1-c1n[nH]c2nc(N[C@H]3CC[C@H](NS(=O)(=O)CC(C)C)CC3)ncc12  relative abundance (bead binding, competition bead pull-down, item: LINJ.23.0220; Leishmania donovani extract; 10 µM; relative to: vehicle): 0.94
CC(C)[C@H](NC(=O)[C@H](CCCNC(=N)N)NC(=O)[C@@H]1CCCN1C(=O)[C@@H](NC(=O)[C@H](C)NC(=O)[C@H](Cc1ccc(O)cc1)NC(=O)[C@H](CCC(N)=O)NC(=O)[C@H](CCCCN)NC(=O)[C@H](CCCNC(=N)N)NC(=O)[C@@H]1CCCN1C(=O)[C@H](CCC(=O)O)NC(=O)[C@@H](NC(=O)[C@H](C)N)[C@@H](C)O)[C@@H](C)O)C(=O)N[C@@H](Cc1ccccc1)C(=O)N[C@@H](Cc1c[nH]c2ccccc12)C(=O)N[C@H](C(=O)N[C@@H](CC(=O)O)C(=O)N[C@@H](C)C(=O)N1CCC[C@H]1C(=O)NCC(=O)NCCOCCOCCOCCOCCOCCOCCOCCOCCOCCOCCOCCOCCC(=O)N[C@@H](CS)C(N)=O)[C@@H](C)O  selectivity ratio (H2122 lung adenocarcinoma; cell binding, phage binding, item: output/input phage; 10 min, 37 °C; relative to: control phage): 0.56 ± 0.14
